Results pooled from the literature.
A part holds a random share of what one study measured.

Study 1
Target: PABPC1L2, full length, GST fusion (mouse, UniProt A0ABA7IW68)
Technique: RNAcompete
Molecule type: RNA
Medium: in vitro
Concentration: 20 nM
Notes: 7-mer, probes averaged, single round
Reference: mean of 7-mers
Direction: higher = stronger binding
Target sequence (chain): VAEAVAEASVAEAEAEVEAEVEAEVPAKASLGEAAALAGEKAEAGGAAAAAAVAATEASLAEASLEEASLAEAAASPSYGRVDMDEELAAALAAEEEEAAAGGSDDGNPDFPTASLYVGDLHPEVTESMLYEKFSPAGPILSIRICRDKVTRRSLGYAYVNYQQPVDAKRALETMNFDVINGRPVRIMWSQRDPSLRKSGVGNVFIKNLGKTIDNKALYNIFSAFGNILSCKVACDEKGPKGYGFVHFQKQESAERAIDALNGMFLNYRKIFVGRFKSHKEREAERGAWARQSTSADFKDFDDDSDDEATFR
| Strand | 7-mer Z-score |
| --- | --- |
| GAGGGCA | 0.677 |
| AACCCAU | 0.166 |
| UGGUCAG | -0.101 |
| GGUGACU | 0.000733 |
| CUGAUUC | -0.271 |
| UUUAGUC | -0.302 |
| GACGAUG | -0.146 |
| CCGGGUA | -0.103 |
| GAACGAA | 0.177 |
| CAGAUGU | 0.00436 |
| GCGGCAC | 0.0696 |
| CUAUUUG | -0.461 |
| AGACCGC | -0.262 |
| UUUUUAU | -0.00108 |
| CGCGUCC | -0.3 |
| AUUCAUC | -0.393 |
| GUACAAA | 1.85 |
| ACGUACG | -0.0518 |
| ACCCAAG | -0.0935 |
| AAGCGAA | 0.327 |
| GAAGGGG | 0.597 |
| GCCAUAC | -0.191 |

Study 2
Target: Histone acetyltransferase KAT6A, winged helix 2, GST fusion (KAT6A, Homo sapiens, UniProt Q92794, residues 85-181)
Technique: protein binding microarray
Molecule type: double-stranded DNA, one strand shown
Medium: in vitro
Concentration: not given
Notes: 8-mer, flanks averaged, mean of 2 arrays, mostly near background
Reference: not given
Direction: higher = stronger binding
Target sequence (chain): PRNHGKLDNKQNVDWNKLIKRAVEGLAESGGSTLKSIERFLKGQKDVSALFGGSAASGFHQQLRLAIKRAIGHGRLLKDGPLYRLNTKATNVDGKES
| Strand | E-score |
| --- | --- |
| ACGGTAAT | -0.241 |
| CGAGATAC | 0.0345 |
| GTAGACTA | -0.202 |
| CTGATTTA | -0.092 |
| CGTCATCA | -0.161 |
| CACAGCTC | 0.0536 |
| CCCCGTCG | -0.013 |
| AGAGCTCT | -0.289 |
| ATAAATGC | -0.00143 |
| CGTCTGGC | 0.021 |
| CAGGTTGC | -0.0102 |
| CGGAGAGA | 0.15 |
| AAGGAAAT | -0.0765 |
| ACGCAGAC | 0.118 |
| CGACCTCC | 0.0344 |
| GTCATCCA | -0.0839 |
| AACTATGT | -0.154 |
| ATTTCAAG | -0.0713 |
| GCAAGGGA | 0.0188 |
| ACAATGGT | -0.204 |
| ATCGCTCA | -0.0129 |
| GCTGGACA | -0.0299 |
| GGTTTGGA | -0.0632 |
| TGTATCAA | 0.159 |
| AGAGGGAT | -0.112 |

Study 3
Target: RNA binding protein fox-1 homolog 2, RRM domain, GST-SBP tag (RBFOX2, Homo sapiens, UniProt O43251-10, residues 100-194)
Technique: RNA Bind-n-Seq
Molecule type: RNA
Medium: in vitro
Concentration: 365 nM
Notes: natural RNA segment, single round, ends assumed
Reference: no-protein control
Direction: higher = stronger binding
All sequences stand within: GGGAGUUCUACAGUCCGACGAUC … UGGAAUUCUCGGGUGCCAA
Target sequence (chain): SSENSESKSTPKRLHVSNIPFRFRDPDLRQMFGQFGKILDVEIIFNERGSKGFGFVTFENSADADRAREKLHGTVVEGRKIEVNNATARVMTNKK
| Strand | RBNS enrichment (R) |
| --- | --- |
| AUGCUCUGCUGGAGUGUUGGCCUCACCCCAGUCCCCUUGCCAGCAACAUCACUGCCCUUGGACGAGACUCAGUGGAAGACACUUCCCCUCGGACCCGUUCCCAGGAGGUG | 0.232 |
| ACGUUGGCUCAUGCAUAUAACCACCUGCUGCUGAUGUACUUCUCCAUCUUAAAAAGAUUUAGAGUGGAUUAACCAGGUCAUUACAUCUUAAUUUAAUAACAAGCAUUACU | 0.366 |
| AUGCCACGUGUGCUUCAUGAUGGAACUUUUAGGUCAGUUCCUAUUAAAUGAGCUCUUUUGCAGAUAGCACAUUCAGUAGCCUUAUUUUGUUGAUGGAAUACUGUAUCAUA | 0.454 |
| UUGGUCACAAAUGCUGUUCCCUCUUAGCCUCAUUCUGUGCAACCAAGUGCAUAUAAGAUGCCCUGAAAAGAGUAACAAAGUAUGCUUUGCCUGUUUCCACUUACCAGGAA | 0.308 |
| UGUUUUGGUAGGAAAUCUUUAAGAUUGGCGGACGGAACAGGUAUUUUAGUGAGACACUUCUGAGUACUUGCUUUUUCCUUUGACUUCUAACCAACUAAAAGAGAAGGAGG | 0.388 |
| UGACUAGUAAGGUGUUGUAAGUGAUAAGAUCAAUAUCCCUAUGGCUGCUUCCUUGAUCACAGUUUCAAGAUGUGUUCUUGCUCUCAUCCUUCAUCAUUGACACUGACCCU | 0.352 |
| GUUCUGGGACAGUGUCAAAAUGGAAUAACCUGGCAUAAAGCUGAAUUAUCUGAGGAAACUCAAUGGGUAUGAAGAUGAUCAAUUCUGUAAGCCUUGUGGCUGUGCUGUCA | 0.3 |
| UAGAUUUGUACAAAUGCUUUUUUUGUCCGUCCUCGUGGGGUUUUUUUUCUCCCCCUUUUCUUUGUUGUUUUCGUUGUUGUUGAUAACAAACUGGAAACCUGUCUCUCUCU | 0.591 |
| UUUAUACUGUAAGUUAUUUUACUUCCCCUGGGACCCUUUCCAGUCCUCGUUUUACAUUCAUUCCUCUUUGGAUUUGCUUUGUGAUUUUGUUGUUGUUGAUGUUGUUGUUG | 1 |
| UUUCUCCAUUUCUGAGGGUCAGGAUGGCCAAGCAUGGAUUAACACUAGGAGAGUGCAGAGCGCAGCAGAGCCUGCUCUCAUCCCUCUAUCCCCAGCCCAGUCUUCCUCCU | 0.377 |
| AACUGGGCAAUAUGGGUAAAAUUUCCUUUUUUCCCUAAGAAUGAGGUCUUCCAUGUUUGAGGAAAUGUCUUGCACUAUUGCAUAUAUUUUGUGGACACAGAUUUUUGUAG | 1.65 |
| GCUUGAAGAGACCCCCUCCCCCUUCCAACGAGCUUCCGGACUUGUCUGCACCCCCAGCAAGAAGGCGAGUUAGUUUUCUAGAGACUUGAAGGAGUCUCCCCCUUCCUGCA | 0.705 |

Study 4
Target: Sal-like protein 4, full length isoform A (SALL4, Homo sapiens, UniProt Q9UJQ4, residues 1-1053)
Chain of UniProt Q9UJQ4 (whole entry, looked up): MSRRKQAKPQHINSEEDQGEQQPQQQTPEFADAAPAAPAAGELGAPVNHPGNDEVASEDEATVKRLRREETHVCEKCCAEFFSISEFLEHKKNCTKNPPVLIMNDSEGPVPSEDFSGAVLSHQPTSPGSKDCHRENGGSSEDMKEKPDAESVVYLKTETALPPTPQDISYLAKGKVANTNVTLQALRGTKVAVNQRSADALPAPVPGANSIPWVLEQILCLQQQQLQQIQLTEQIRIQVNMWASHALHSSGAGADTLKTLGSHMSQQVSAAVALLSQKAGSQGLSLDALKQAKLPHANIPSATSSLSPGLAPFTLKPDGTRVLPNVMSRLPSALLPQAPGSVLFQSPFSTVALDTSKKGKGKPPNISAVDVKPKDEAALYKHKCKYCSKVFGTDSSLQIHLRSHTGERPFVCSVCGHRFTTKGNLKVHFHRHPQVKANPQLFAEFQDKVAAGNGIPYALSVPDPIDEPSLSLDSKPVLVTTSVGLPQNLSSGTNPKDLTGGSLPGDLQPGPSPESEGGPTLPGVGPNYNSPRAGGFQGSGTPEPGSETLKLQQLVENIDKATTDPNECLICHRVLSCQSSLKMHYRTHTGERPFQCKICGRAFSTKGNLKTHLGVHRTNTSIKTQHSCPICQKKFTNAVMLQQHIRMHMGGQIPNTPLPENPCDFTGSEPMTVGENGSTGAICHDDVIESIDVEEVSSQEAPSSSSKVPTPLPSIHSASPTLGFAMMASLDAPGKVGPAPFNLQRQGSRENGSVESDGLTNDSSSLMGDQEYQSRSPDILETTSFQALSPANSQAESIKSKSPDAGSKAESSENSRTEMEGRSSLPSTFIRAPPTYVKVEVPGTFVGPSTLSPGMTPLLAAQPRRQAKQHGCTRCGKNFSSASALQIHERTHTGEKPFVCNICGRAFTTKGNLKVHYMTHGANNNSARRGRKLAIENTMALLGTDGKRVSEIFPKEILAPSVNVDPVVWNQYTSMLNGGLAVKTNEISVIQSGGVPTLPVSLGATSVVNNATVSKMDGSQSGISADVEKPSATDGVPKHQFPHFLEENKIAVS
Technique: universal PBM
Molecule type: double-stranded DNA, one strand shown
Medium: in vitro
Concentration: 600 nM
Notes: 8-mer, flanks averaged, mean of replicates
Direction: higher = stronger binding
| Strand | E-score |
| --- | --- |
| CGGGCTAC | -0.315 |
| GGATGGCC | -0.365 |
| TGGATAAA | 0.254 |
| AAAAGACC | 0.00593 |
| AGGCTACT | -0.0571 |
| CGTGAGGC | -0.249 |
| ATAGTTGC | 0.228 |
| GTAGTAAC | 0.00971 |
| ACCACTCT | -0.2 |
| ACAGTAGG | -0.0554 |
| ACGCACAG | -0.105 |
| CTTCCGCC | -0.134 |
| TCCACAGA | -0.0148 |
| CGGCACGC | -0.217 |
| ACGCTGGA | -0.184 |
| ATAGCGAT | 0.0119 |
| AGCCTGTA | 0.0432 |
| CATGCGCA | 0.025 |
| GCTCCGTA | -0.114 |
| AATGCAGC | -0.172 |
| ATGCTCAC | 0.00071 |
| CCTATGAA | 0.129 |
| ATTGCCGA | -0.0269 |
| CGCACATA | -0.112 |
| CGGAATAG | -0.0999 |

A few entries again (study 4):
| Strand | E-score |
| --- | --- |
| GGATGGCC | -0.365 |
| TGGATAAA | 0.254 |
| AAAAGACC | 0.00593 |
| AGGCTACT | -0.0571 |
| CGTGAGGC | -0.249 |
